Results gathered from unrelated publications.
A part holds a random share of what one study measured.

Set 1
Target: FOXO3, forkhead domain (mouse, UniProt Q9WVH4, residues 31-263)
Chain of UniProt Q9WVH4 (31-263, looked up): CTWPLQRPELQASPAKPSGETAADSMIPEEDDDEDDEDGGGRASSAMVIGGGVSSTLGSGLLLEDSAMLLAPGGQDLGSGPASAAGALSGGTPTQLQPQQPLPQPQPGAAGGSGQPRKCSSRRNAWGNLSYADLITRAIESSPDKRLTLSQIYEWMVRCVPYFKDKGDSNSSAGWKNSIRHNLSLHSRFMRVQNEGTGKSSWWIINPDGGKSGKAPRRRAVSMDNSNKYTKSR
Method: protein-binding microarray
Molecule type: hairpin DNA
Medium: in vitro
Concentration: not given
Setting: whole hairpin DNA, median over replicate spots
Relative to: not given
Direction: higher = stronger binding
For `GAGGCCATGTAAACCACGCCTCCTGGCGTGGTTTACATGGCCTCACACTC`, the median fluorescence was 4220 a.u.
`GAGGCCATGTAAGCAACGCCTCCTGGCGTTGCTTACATGGCCTCACACTC (5mC at 32)` gave a median fluorescence of 6020 a.u.
For `GAGGCCAGGTAACCAACGCCTCCTGGCGTTGGTTACCTGGCCTCACACTC (5mC at 37)`, the median fluorescence was 4380 a.u.
`GAGGCCCGGCAAACAACGCCTCCTGGCGTTGTTTGCCGGGCCTCACACTC (5mC at 7)` gave a median fluorescence of 5400 a.u.
The median fluorescence of `GAGGCCAGGTAACCAACGCCTCCTGGCGTTGGTTACCTGGCCTCACACTC` is reported as 4260 a.u.
`GAGGCCATCGAAACAACGCCTCCTGGCGTTGTTTCGATGGCCTCACACTC (5mC at 35)` has a median fluorescence of 4280 a.u.
`GAGGCCATGTAAACGACGCCTCCTGGCGTCGTTTACATGGCCTCACACTC (5mC at 14)` has a median fluorescence of 4350 a.u.

Set 2
Target: Hepatocyte nuclear factor 3-beta, forkhead domain (FOXA2, Homo sapiens, UniProt Q9Y261, residues 142-269)
Method: protein-binding microarray
Molecule type: double-stranded DNA, one strand shown
Medium: in vitro
Concentration: not given
Setting: k-mer, scored over probes, only values ≥0.25
Direction: higher = stronger binding
Residues (chain): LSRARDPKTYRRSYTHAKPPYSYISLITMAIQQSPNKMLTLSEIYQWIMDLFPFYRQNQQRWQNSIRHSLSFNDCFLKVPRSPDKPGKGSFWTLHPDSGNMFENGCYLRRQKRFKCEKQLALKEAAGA
`ATAATCAT` has an E-score of 0.34.
`TACATTCA` has an E-score of 0.268.
`ACACATTA` has an E-score of 0.318.
`CAAATAAA` has an E-score of 0.255.
For `ACGTTATA`, the E-score was 0.31.

Set 3
Target: Histone acetyltransferase KAT6A, winged helix 1, GST fusion (KAT6A, Homo sapiens, UniProt Q92794, residues 1-85)
Method: protein binding microarray
Molecule type: double-stranded DNA, one strand shown
Medium: in vitro
Concentration: not given
Setting: 8-mer, flanks averaged, mean of 2 arrays, mostly near background
Relative to: not given
Direction: higher = stronger binding
Construct (chain): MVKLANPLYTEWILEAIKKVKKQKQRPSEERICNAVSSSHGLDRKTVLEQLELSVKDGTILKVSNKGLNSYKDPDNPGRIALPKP
With `CTCTTGAC` the E-score was -0.0596.
The E-score of `ATTGACCA` is reported as -0.283.
With `GATACCGA` the E-score was 0.0968.
The E-score of `CGCCCTCC` is reported as 0.25.
The E-score of `TAATGAAA` is reported as -0.152.
The E-score of `GCCCTGAA` is reported as -0.0348.
For `AGGGGGAA`, the E-score was -0.059.

Further values, each from its own experiment
`PhoQ, residues 284 288 289 292 302 303 SLSLLA` has a fold induction of 84.8 (PhoP, residues 12 14 15 18 19 HEGLL (Escherichia coli, UniProt P23836); Sort-seq, measured: YFP reporter; E. coli; PhoQ-PhoP variant library, together with: 10 µM Mg2+; relative to: high Mg2+ state, higher = stronger signaling).

Some of these lines once more (set 2):
`ATAATCAT` has an E-score of 0.34.
`TACATTCA` has an E-score of 0.268.
`ACACATTA` has an E-score of 0.318.
